Results collected from several papers.
“And” joins repeats or separate records; there may be more than shown. Numbers after ± are the reported error.
Voltage-dependent P/Q-type calcium channel subunit alpha-1A: Voltage-dependent P/Q-type calcium channel subunit alpha-1A (Homo sapiens, UniProt O00555)
KCNC4: Voltage-gated potassium channel KCNC4 (KCNC4, Homo sapiens, UniProt Q03721)
UCHL1: Ubiquitin carboxyl-terminal hydrolase isozyme L1 (UCHL1, Homo sapiens, UniProt P09936)
Rab GDP dissociation inhibitor beta with Rab1A: Rab GDP dissociation inhibitor beta, with Rab1A (Homo sapiens, UniProt P50395)
LATS1: Serine/threonine-protein kinase LATS1 (LATS1, Homo sapiens, UniProt O95835)
LRRC8C L136K part LRRC8A IL1 chimera: Volume-regulated anion channel subunit LRRC8C, part LRRC8A IL1 chimera (LRRC8C, Homo sapiens, UniProt Q8TDW0, L136K)

`C=C1O[C@H](CO)[C@@H](O)[C@H](O)[C@H]1O` — result for inhibition: “no inhibition” (uncharacterized protein (Saccharopolyspora erythraea, UniProt A4F7P9); enzyme activity; concentration not given, kinetics).
With `O=C1c2ccccc2C(=O)c2c(NCCc3ccc(O)cc3)ccc(NCCc3ccc(O)cc3)c21` the EC90 was 438 µM (Toxoplasma gondii; parasite growth; HFF, bradyzoite, alkaline-induced).
`OO` has an inhibition of 20 ± 5% (Histone acetyltransferase RTT109, with Vps75 (Saccharomyces cerevisiae, UniProt Q07794); enzyme activity; 1 mM, together with: Rtt109-Vps75 complex, without DTT).
`NS(=O)(=O)C#Cc1ccccc1` gave an EC90 of 40.8 µM (Toxoplasma gondii; parasite growth; HFF, bradyzoite, alkaline-induced).
`CC(C)NCC(O)COc1cccc2ccccc12` (stereo not shown) gave an inhibition of 57% (Voltage-dependent P/Q-type calcium channel subunit alpha-1A; ion current, antagonist; HEK293; 30 µM).
`CN(C(=O)n1cnc(-c2ccc[n+]([O-])c2)c1)C1CCCCC1` — result for inhibition: “inhibited” (Fatty-acid amide hydrolase 1 (Faah, Rattus norvegicus, UniProt P97612); enzyme activity, inhibitor; rat, liver; 0.1 mg/kg, 8 h).
`CC(C)c1noc2ncc(C(=O)c3ccccc3O)cc12` has an inhibition of 0% and 3.6% and 0.87% (KCNC4; ion current, inhibitor, whole-cell patch clamp; 10 µM).
`COc1ccc(F)cc1C(=O)NCc1ccc(-c2nn([C@@H](C)C(F)(F)F)c(N)c2C(N)=O)cc1` has an inhibition of over 50% (Tyrosine-protein kinase Tec (TEC, Homo sapiens, UniProt P42680); probe binding, competitive chemoproteomics; live human PBMCs; 1 µM).
For `CC#CC(=O)NC1CCCN(C(=O)c2ccc(F)cc2Cl)C1` (stereo not shown), the labelling was 10.3% (UCHL1; covalent, intact protein LC-MS; 12.5 µM).
`CN[C@H]1CC[C@@H](c2ccc(Cl)c(Cl)c2)c2ccccc21` gave an inhibition of 100% (Voltage-dependent P/Q-type calcium channel subunit alpha-1A; ion current, antagonist; HEK293; 30 µM).
The inhibition of `O=C(C[C@@H](C(F)F)n1ccc(F)n1)N1CCC(O)(Cn2cnc3c(cnn3-c3ccc(F)cc3)c2=O)CC1` is reported as 96.8% and 99% (Ubiquitin carboxyl-terminal hydrolase 7 (USP7, Homo sapiens, UniProt Q93009); enzyme activity, inhibitor; 50 µM).
`C=CS(=O)(=O)Nc1ccc(CCn2cc(C[C@@]3(O)C[C@@H]4c5cc(OCc6cc(C)cc(C)c6)c(OCc6cc(C)cc(C)c6)cc5CCN4[C@@H](C)C3)nn2)cc1` gave an inhibition of 94.7% (Rab GDP dissociation inhibitor beta with Rab1A; GDI2-Rab1A interaction, NanoLuc complementation; 6.25 µM).
With `Cc1ccc(CNC(=O)[C@H](CCc2ccccc2)NC(=O)[C@H](CCc2ccccc2)NC(=O)[C@H](CCc2ccccc2)NC(=O)c2cnc(C)cn2)cc1` the inhibition was 12% (trypsin; enzyme activity, inhibitor; 100 µM).
The inhibition of `Cc1cc(C)cc(COc2cc3c(cc2OCc2cc(C)cc(C)c2)[C@H]2C[C@](O)(Cc4cn(Cc5ccc(NC(=O)/C=C/CN(C)C)cc5)nn4)C[C@H](C)N2CC3)c1` is reported as 93.2% (Rab GDP dissociation inhibitor beta with Rab1A; GDI2-Rab1A interaction, NanoLuc complementation; 6.25 µM).
With `CNCCC(Oc1ccc(C(F)(F)F)cc1)c1ccccc1.Cl` (stereo not shown) the inhibition was 45% (Voltage-dependent P/Q-type calcium channel subunit alpha-1A; ion current, antagonist; 30 µM).
With `Cc1cc(-c2ccnc3[nH]cc(F)c23)cc(F)c1[C@@]1(O)[C@H](C)CN(C(=O)CN)C[C@@H]1C` the inhibition was 81.2% (LATS1; ATP probe binding, KiNativ, refers to: Lys2 site; HEK293T cell lysate; 1 µM).
`CCC(=O)NC[C@@H]1C[C@H]1c1cccc2c1CCO2` gave an inhibition of 2% (Voltage-dependent P/Q-type calcium channel subunit alpha-1A; ion current, antagonist; HEK293; 3 µM).
`Cn1cc(-c2cnc3ccc(NC(=O)Nc4ccc(F)c(Br)c4)cc3n2)cn1` gave an inhibition of 12.4% (Mitogen-activated protein kinase kinase kinase 4 (MAP3K4, Homo sapiens, UniProt Q9Y6R4); kinase binding, KiNativ profiling, refers to: Lys2 peptide; PANC-1 lysate; 7.5 µM).
The inhibition of `Cc1nn(-c2nc3ccccc3s2)c(O)c1C(c1ccccc1C(=O)O)c1c(C)nn(-c2nc3ccccc3s2)c1O` is reported as 85.2% (Cyclic GMP-AMP synthase, catalytic domain; with DNA (CGAS, Homo sapiens, UniProt Q8N884); cGAS phase separation, inhibitor; 0.625 µM).
`CC(=O)O[C@H]1C(=O)[C@@]2(C)[C@H]([C@H](OC(=O)c3ccccc3)[C@]3(O)C[C@H](OC(=O)[C@H](O)[C@@H](NC(=O)c4ccccc4)c4ccccc4)C(C)=C1C3(C)C)[C@]1(OC(C)=O)CO[C@@H]1C[C@@H]2O` gave an inhibition of 13% (Voltage-dependent P/Q-type calcium channel subunit alpha-1A; ion current, antagonist; HEK293; 10 µM).
`Cc1cc(C)cc(COc2cc3c(cc2OCc2cc(C)cc(C)c2)[C@H]2C[C@](O)(Cc4cn(Cc5cccnc5)nn4)C[C@H](C)N2CC3)c1` has an inhibition of 59.6% (Rab GDP dissociation inhibitor beta with Rab1A; GDI2-Rab1A interaction, NanoLuc complementation; 6.25 µM).
The inhibition of `[2H]c1cc(C)c(NC(=O)c2cnc(Nc3cc(N4CCCCC4)nc(C)n3)s2)c(Cl)c1` is reported as over 50% (Ephrin type-A receptor 1 (EPHA1, Homo sapiens, UniProt P21709); 0.001 µM).
For `Cc1ccc(C(=O)Nc2ccc3ccccc3c2)o1`, the inhibition was 0.982% (KCNC4; ion current, whole-cell patch-clamp; 10 µM, hKv3.4).
`O=C(O)CCCOc1c2ccoc2cc2oc(=O)ccc12` — result for inhibition: “no effect” (Potassium voltage-gated channel subfamily A member 3 (Kcna3, Mus musculus, UniProt P16390); potassium current; L929; 25 µM).
`CCS(=O)(=O)c1nc(S(=O)(=O)c2ccccc2Cl)c(N2CCN(C)C(=O)[C@H]2C)s1` gave an inhibition of 4.73% (Muscarinic acetylcholine receptor M5 (CHRM5, Homo sapiens, UniProt P08912); 10 µM).
`Fc1ccc([C@@H]2CCNC[C@H]2COc2ccc3c(c2)OCO3)cc1` gave an inhibition of 97% (Voltage-dependent P/Q-type calcium channel subunit alpha-1A; ion current, antagonist; HEK293; 10 µM).
For `CC[C@@H]1[C@H](F)C(=O)N[C@@H]1COc1nccc2cc(C(N)=O)c(OC)cc12`, the inhibition was 6.6% (Protein-tyrosine kinase 2-beta (PTK2B, Homo sapiens, UniProt Q14289); ATP probe binding, KiNativ profiling, refers to: activation loop probe site; THP-1 cell lysate; 0.04 mM).
For `Cc1nc(NC(=O)N2CCCC2)sc1-c1csc(C(C)(C)C)n1`, the inhibition was 14% (Phosphatidylinositol 4,5-bisphosphate 3-kinase catalytic subunit alpha isoform (PIK3CA, Homo sapiens, UniProt P42336, K776A); enzyme activity; 3 µM).
With `COc1ccc2c3c1O[C@H]1C[C@@H](O)C=C[C@@]31CCN(C)C2` the inhibition was 2% (Voltage-dependent P/Q-type calcium channel subunit alpha-1A; ion current, antagonist; HEK293; 30 µM).
The inhibition of `Cc1cc(C)cc(COc2cc3c(cc2OCc2cc(C)cc(C)c2)[C@H]2C[C@](O)(Cc4cn(CC5CCCCC5)nn4)C[C@H](C)N2CC3)c1` is reported as 87.2% (Rab GDP dissociation inhibitor beta with Rab1A; GDI2-Rab1A interaction, NanoLuc complementation; 6.25 µM).
`O=C(NO)c1ccc(CN2CCCCc3ccccc32)c(F)c1` has an inhibition of 6.66% (Alpha-2C adrenergic receptor (ADRA2C, Homo sapiens, UniProt P18825); radioligand binding, radioligand displacement; 10 µM, mean of replicates).
`Cc1cc(-c2ccnc3[nH]cc(F)c23)cc(F)c1[C@@]1(O)[C@H](C)CN(C2CCS(=O)(=O)CC2)C[C@@H]1C` gave an inhibition of 93.8% (Serine/threonine-protein kinase LATS2 (LATS2, Homo sapiens, UniProt Q9NRM7); ATP probe binding, KiNativ, refers to: Lys2 site; HEK293T cell lysate; 10 µM).
With `CNc1cc(Oc2cc(C(=O)Nc3cc(N4CCN(C)CC4)cc(C(F)(F)F)c3)ccc2C)ncn1` the inhibition was -14.4% (LATS1; kinase activity; 1 µM).
With `COc1cc(C(=O)NS(=O)(=O)c2ccccc2C)ccc1Cc1cn(C)c2ccc(NC(=O)OC3CCCC3)cc12` the inhibition was 64% and 66.2% and 48.3% and 49.8% and 47.4% and 55.9% and 44.5% (LRRC8C L136K part LRRC8A IL1 chimera; ion current, inhibitor, whole-cell patch clamp; HCT LRRC8-/- cells; 0.1 µM, +100 mV).
With `C=CS(=O)(=O)Nc1ccc(Cn2cc(C[C@@]3(O)C[C@@H]4c5cc(OCc6cc(C)cc(C)c6)c(OCc6cc(C)cc(C)c6)cc5CCN4[C@@H](C)C3)nn2)cc1` the inhibition was 94.8% (Rab GDP dissociation inhibitor beta with Rab1A; GDI2-Rab1A interaction, NanoLuc complementation; 6.25 µM).
For `NC(=O)CCNC(=S)NCCCC[C@H](NS(=O)(=O)c1cccc(F)c1)C(=O)N[C@@H](Cc1c[nH]c2ccccc12)C(=O)NC1CCC1`, the inhibition was under 0% (NAD-dependent protein deacetylase sirtuin-2 (SIRT2, Homo sapiens, UniProt Q8IXJ6); deacylase activity; 10 µM, together with: NAD+ 500 µM).
`COc1c(C#N)ccnc1N1C2CCC1CN(C(=O)c1cccnc1-n1cccn1)C2` gave an inhibition of -3% (sst; binding; 10 µM).
`N#CC(=Cc1cccc([N+](=O)[O-])c1)C(=O)NCc1ccc(Cl)cc1` gave a labelling of 41.7% (UCHL1; covalent, intact protein LC-MS; 12.5 µM).
For `O=C(Nc1cccc2c(=O)cc(-c3nnn[nH]3)oc12)c1ccc(OCCCCc2ccccc2)cc1`, the inhibition was 26.7% and 22.8% and 41.1% and 25.8% and 13.1% (LRRC8C L136K part LRRC8A IL1 chimera; ion current, inhibitor, whole-cell patch clamp; HCT LRRC8-/- cells; 0.1 µM, -100 mV).
`Cc1ccc(C)c(NC(=O)CSc2nnc(Cc3cc(=O)[nH]c(=O)[nH]3)n2-c2ccc(Cl)cc2)c1` — result for inhibition: “no inhibition” (Poly [ADP-ribose] polymerase tankyrase-1 (TNKS, Homo sapiens, UniProt O95271); enzyme activity, inhibitor; concentration not given).
`Cc1cc(C)cc(COc2cc3c(cc2OCc2cc(C)cc(C)c2)[C@H]2C[C@](O)(Cc4cn(Cc5ccc(O)cc5)nn4)C[C@H](C)N2CC3)c1` has an inhibition of 94.2% (Rab GDP dissociation inhibitor beta with Rab1A; GDI2-Rab1A interaction, NanoLuc complementation; 6.25 µM).
`O=C1CC2(CCCC2)CC(=O)N1CCCCN1CCN(c2ncccn2)CC1` has an inhibition of 10% (Voltage-dependent P/Q-type calcium channel subunit alpha-1A; ion current, antagonist; HEK293; 10 µM).
For `[2H]c1cc(C)c(NC(=O)c2cnc(Nc3cc(N4CCC(O)CC4)nc(C)n3)s2)c(Cl)c1`, the inhibition was under 50% (Platelet-derived growth factor receptor alpha (PDGFRA, Homo sapiens, UniProt P16234); 0.001 µM).

Repeated from above:
`Cc1cc(-c2ccnc3[nH]cc(F)c23)cc(F)c1[C@@]1(O)[C@H](C)CN(C2CCS(=O)(=O)CC2)C[C@@H]1C` gave an inhibition of 93.8% (Serine/threonine-protein kinase LATS2 (LATS2, Homo sapiens, UniProt Q9NRM7); ATP probe binding, KiNativ, refers to: Lys2 site; HEK293T cell lysate; 10 µM).
With `CNc1cc(Oc2cc(C(=O)Nc3cc(N4CCN(C)CC4)cc(C(F)(F)F)c3)ccc2C)ncn1` the inhibition was -14.4% (LATS1; kinase activity; 1 µM).
With `COc1cc(C(=O)NS(=O)(=O)c2ccccc2C)ccc1Cc1cn(C)c2ccc(NC(=O)OC3CCCC3)cc12` the inhibition was 64% and 66.2% and 48.3% and 49.8% and 47.4% and 55.9% and 44.5% (LRRC8C L136K part LRRC8A IL1 chimera; ion current, inhibitor, whole-cell patch clamp; HCT LRRC8-/- cells; 0.1 µM, +100 mV).
With `C=CS(=O)(=O)Nc1ccc(Cn2cc(C[C@@]3(O)C[C@@H]4c5cc(OCc6cc(C)cc(C)c6)c(OCc6cc(C)cc(C)c6)cc5CCN4[C@@H](C)C3)nn2)cc1` the inhibition was 94.8% (Rab GDP dissociation inhibitor beta with Rab1A; GDI2-Rab1A interaction, NanoLuc complementation; 6.25 µM).
For `NC(=O)CCNC(=S)NCCCC[C@H](NS(=O)(=O)c1cccc(F)c1)C(=O)N[C@@H](Cc1c[nH]c2ccccc12)C(=O)NC1CCC1`, the inhibition was under 0% (NAD-dependent protein deacetylase sirtuin-2 (SIRT2, Homo sapiens, UniProt Q8IXJ6); deacylase activity; 10 µM, together with: NAD+ 500 µM).
`COc1c(C#N)ccnc1N1C2CCC1CN(C(=O)c1cccnc1-n1cccn1)C2` gave an inhibition of -3% (sst; binding; 10 µM).
`N#CC(=Cc1cccc([N+](=O)[O-])c1)C(=O)NCc1ccc(Cl)cc1` gave a labelling of 41.7% (UCHL1; covalent, intact protein LC-MS; 12.5 µM).
